# Measurements gathered from unrelated publications.
# A part holds a random share of what one study measured. Changes are numbered by the printed parent chain.

# Series 1
# Target: TAR DNA-binding protein 43, full length, His tag (TARDBP, Homo sapiens, UniProt Q13148, residues 1-414)
# Technique: RNA Bind-n-Seq
# Molecule type: RNA
# Sample: in vitro
# Tested at: 20 nM
# Setting: 6-mer, flanks averaged, single round
# Together with: 150 mM KCl
# Baseline: input library
# Direction: higher = stronger binding
Sequence,6-mer enrichment (R)
CCGACU,0.636
UAAGAA,0.912
UAGCGA,0.815
GCAGGG,4.52
ACGCGA,0.832
UGCUAA,0.648
CUGAUU,0.572
GUCCAU,0.652
UAAUGC,0.651

# Series 2
# Target: CCNF, cyclin fold, Cln2 fusion (human)
# Technique: yeast growth competition, sequencing
# Sample: yeast
# Setting: strong parent motif
# Baseline: not given
# Direction: higher = stronger binding
# Parent: RBL1 docking peptide (human); GSAKRRLFGEDPP
Substitution,normalised enrichment score
L7M,1.01
D11Y,7.49
L7E,-0.138
G1E,7.14
P12G,6.48

# Series 3
# Target: Interferon regulatory factor 7, full length, phosphomimetic (IRF7, Homo sapiens, UniProt Q92985, residues 1-503, S101K/S471D/S472D/S475D/S476D/S477D/S483D/S484D/S487D)
# Technique: protein-binding microarray
# Molecule type: double-stranded DNA, one strand shown
# Sample: in vitro
# Tested at: 250 nM
# Setting: 60-bp whole probe
# Together with: salmon DNA 0.4 mg/ml
# Baseline: random background probes
# Direction: higher = stronger binding
# All sequences stand within: GCCTAGCAC … GTCTTGATTCGCTTGACGCTGCTG
# Target sequence (chain): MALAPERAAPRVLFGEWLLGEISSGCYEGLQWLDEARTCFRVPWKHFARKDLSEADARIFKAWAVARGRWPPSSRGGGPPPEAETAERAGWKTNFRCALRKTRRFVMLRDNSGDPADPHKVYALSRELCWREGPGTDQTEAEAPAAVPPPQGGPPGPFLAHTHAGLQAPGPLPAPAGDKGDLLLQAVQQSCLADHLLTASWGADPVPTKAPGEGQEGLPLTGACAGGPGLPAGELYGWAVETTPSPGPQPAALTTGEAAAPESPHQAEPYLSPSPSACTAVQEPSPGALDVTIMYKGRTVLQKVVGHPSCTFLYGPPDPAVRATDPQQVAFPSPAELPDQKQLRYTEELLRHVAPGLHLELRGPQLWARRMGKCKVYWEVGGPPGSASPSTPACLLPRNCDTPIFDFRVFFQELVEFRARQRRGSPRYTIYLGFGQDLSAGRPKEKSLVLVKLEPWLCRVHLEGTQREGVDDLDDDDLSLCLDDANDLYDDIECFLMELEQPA
Sequence,log fluorescence [z-score]
GACGTTCTCCTTTTCCTGACGTGCTAG,1.49
TTAGATTTCACACTGGATTAGTGCTAG,0.077
TTAGAACTAAGTCTCGATTAGTGCTAG,1.99
AAGTGTGCCCATCTCTGCTCGTGCTAG,0.000666
CTGCATTTTTTTTTTCTACTGTGCTAG,0.452
CACGATATCGGGACTGGAGACGTGCTA,0.0757
TCAGAAATTTCTTTCTAACTGTGCTAG,0.138
TACGGACTGCTTATCCTGACGTGCTAG,-0.33
TTAAGTTTCGGGTATCGGTTAGTGCTA,8.33

# Single results of other studies
Molecule,target,assay,system,conditions,how to read,endpoint,result
"PhoQ, residues 284 288 289 292 302 303 AAQSYM","PhoP, residues 12 14 15 18 19 LHSVQ (Escherichia coli, UniProt P23836)","Sort-seq, measured: YFP reporter",E. coli,"PhoQ-PhoP variant library, together with: 10 µM Mg2+","baseline: high Mg2+ state, higher = stronger signaling",fold induction,14.7
